Assay results pooled from the literature.
Several values in a cell are separate wells, animals, samples, runs or records.
CDK2 with cyclin A1: Cyclin-dependent kinase 2, with cyclin A1 (CDK2, Homo sapiens, UniProt P24941)
CDK2 with cyclin E: Cyclin-dependent kinase 2, with cyclin E (CDK2, Homo sapiens, UniProt P24941)
CDK2 with cyclin A: Cyclin-dependent kinase 2, with cyclin A (CDK2, Homo sapiens, UniProt P24941)

| Compound | target | assay | conditions | inhibition |
| --- | --- | --- | --- | --- |
| CCn1cc(C(=O)O)c(=O)c2c(N)c(F)c(NC3CCCCC3)cc21 | CDK2 with cyclin A1 | kinase activity | 0.1 µM, with: ATP at Km | 33.1% |
| Cc1cccc(O[C@H]2CCC[C@@H](C(C)CNCc3ccncc3)C2)c1 (relative stereo) | CDK2 with cyclin E | kinase activity, kinome panel screening | 1 µM | 2% |
| COc1ccc(O)cc1-c1c[nH]c2ncc(-c3cncc(C(=O)N(C)C)c3)cc12 | Cyclin-dependent kinase 2, with cyclin E1 (CDK2, Homo sapiens, UniProt P24941) | binding, competition with immobilised ligand | 0.2 µM | 10.4% |
| CN1CC[C@@H](COc2cnc(C#N)cc2-c2ccn3nc(NC(=O)C4CC4)cc3c2)C1 | CDK2 with cyclin A | enzyme activity, inhibitor | 1 µM | 11% |
| C=CC(=O)Nc1cccc(-c2cnc3[nH]cc(C(=O)NC(C)(C)C)c3n2)c1 | Cyclin-dependent kinase 2 (CDK2, Homo sapiens, UniProt P24941) | kinase activity | 0.1 µM | 17% and 20% |
| COc1ccc(C(=O)/C=C/c2ccccc2-c2c[nH]c3ccc(C#N)cc23)c(O)c1 | CDK2 with cyclin A | enzyme activity, inhibitor | 20 µM | -9% |
| CN1CCN(Cc2ccc(-c3ccc(CO[C@H]4CCC[C@@H]4NC(=O)c4cc(-c5cnn(C)c5)cnc4N)cc3)cc2)CC1 | Cyclin-dependent kinase 2, with cyclin O (CDK2, Homo sapiens, UniProt P24941) | enzyme activity, inhibitor | 0.1 µM | 6% |
| NC(=O)[C@@H](O)C[C@H]1CCc2sc3ncnc(O[C@H]4CC[C@H](N5CCOCC5)CC4)c3c21 | CDK2 with cyclin A1 | enzyme activity, inhibitor | 10 µM | 41% |
| C=CC(=O)N1Cc2nc(-c3cc(-c4cc(Cl)cnc4Cl)c(F)cc3F)n(-c3ccncn3)c2C1 | CDK2 with cyclin A | cell-free assay, inhibitor | 1 µM | 7.1% |
| C[C@H]1CN(C(=O)c2cn(-c3ccnc(N)n3)c3cc(C#CC4(O)CCCCC4)ccc23)CCN1 | CDK2 with cyclin A | enzyme activity, inhibitor, FRET | 1 µM | 2% |
| NC(=O)C[C@H]1CCc2sc3ncnc(O[C@H]4CC[C@H](N5CCOCC5)CC4)c3c21 | CDK2 with cyclin E | enzyme activity, inhibitor | 10 µM | 27% |
